Measurements of several laboratories.
Lines come from different studies, so protocols differ. Numbers after ± are the reported error. Values after ≈ are worked out from the molar mass of the structure shown.
Cell line: HUVEC

| SMILES | test | setting | how to read | endpoint | result |
| --- | --- | --- | --- | --- | --- |
| C/C1=C\[C@H](C)C[C@H](C)OC(=O)C[C@H](c2ccc(O)cc2)NC(=O)[C@@H](Cc2ccc(O)c(I)c2)N(C)C(=O)[C@H](C)NC(=O)[C@@H](C)C1 | cell growth or viability | – | – | GI50 | 0.2 µg/mL (≈ 0.273 µM) |
| O=C(NCc1cc(F)cc(F)c1)[C@@]1(O)CCN(c2ccc3[nH]ccc3c2)C1=O | Matrigel tube formation, item: total tube length | 10 µM, no pretreatment | – | inhibition of tube formation | ~50% |
| COc1ccc(CC[C@H]2OC(=O)[C@@H]3CCCCN3C(=O)C(=O)C(C)(C)COC(=O)/C=C/CCN(C)C(=O)[C@H](CC(C)C)N(C)C(=O)[C@@H]3CCCN3C(=O)[C@H](Cc3ccccc3)N(C)C(=O)[C@H](c3ccccc3)NC(=O)CCC(=O)Nc3cccc2c3)cc1OC | [3H]thymidine incorporation | – | – | IC50 | 0.0062 ± 0.0013 µM |
| CC[C@H](C)[C@H](NC(=O)[C@H]1CCC[C@@H]1NC(=O)[C@H](CCCCN)NC(=O)[C@H](CCCCN)NC(=O)C[C@H](C)NC(=O)[C@H](CC(C)C)NC(=O)[C@H](CCCCN)NC(=O)[C@H]1CCC[C@@H]1NC(=O)[C@H](CC(C)C)NC(=O)CN)C(=O)N[C@@H](CCCCN)C(=O)N[C@@H](CO)CC(=O)N[C@@H](Cc1ccccc1)C(N)=O | cytotoxicity | – | – | IC50 | 299 µg/mL |
| Cc1ccc2c(c1C#Cc1ccc(O)cc1)C(c1ccc(O)cc1)(c1ccc(O)cc1)c1cc(O)ccc1-2 | cell growth or viability, MTT | 48 h | – | IC50 | > 50 µM |
| COc1ccc(CC[C@H]2OC(=O)[C@@H]3CCCCN3C(=O)C(=O)C(C)(C)COC(=O)C=CCCN(C)C(=O)[C@H](CC(C)C)N(C)C(=O)[C@H]3CCCN3C(=O)[C@H](Cc3ccccc3)N(C)C(=O)[C@H](Cc3cccc4ccccc34)NC(=O)CCC(=O)Nc3cccc2c3)cc1OC | thymidine uptake, inhibitor | – | – | IC50 | > 20 µM |
| O=Cc1ccc(-c2ccc(O)cc2)c(C(=C2C=CC(=O)C=C2)c2ccc(O)cc2)c1C#Cc1ccc(O)cc1 | cell growth or viability, MTT | 48 h | – | IC50 | > 50 µM |
| CC[C@H](C)[C@H](NC(=O)[C@H](CCCCN)NC(=O)[C@H](Cc1ccccc1)NC(=O)[C@H]1CCC[C@@H]1NC(=O)[C@@H](N)CCCCN)C(=O)N[C@H](CC(=O)N[C@@H](CCCCN)C(=O)N[C@@H](CCCCN)C(=O)N[C@H]1CCC[C@@H]1C(=O)N[C@@H](C)C(=O)N[C@@H](CCCCN)C(=O)N[C@@H](CO)C(=O)N[C@H](CC(N)=O)Cc1ccccc1)[C@@H](C)CC | cytotoxicity | – | – | IC50 | > 128 µg/mL |
| COc1ccc(CC[C@H]2OC(=O)[C@@H]3CCCCN3C(=O)C(=O)C(C)(C)COC(=O)C=CCCN(C)C(=O)[C@H](CC(C)C)N(C)C(=O)[C@H]3CCCN3C(=O)[C@H](Cc3ccccc3)N(C)C(=O)[C@H](Cc3ccc(F)cc3)NC(=O)CCC(=O)Nc3cccc2c3)cc1OC | thymidine uptake, inhibitor | – | – | IC50 | 11.1 ± 0.1 µM |
| COC(OC)c1ccc(-c2ccc(O)cc2)c(C(=C2C=CC(=O)C=C2)c2ccc(O)cc2)c1C#Cc1ccc(O)cc1 | cell growth or viability, MTT | 48 h | – | IC50 | > 50 µM |
| CC[C@H](C)[C@H](NC(=O)C[C@H](CCCCN)NC(=O)[C@H](CCCCN)NC(=O)C[C@@H](NC(=O)[C@@H](NC(=O)C[C@H](CCCCN)NC(=O)[C@H](Cc1ccccc1)NC(=O)C[C@H](CC(C)C)NC(=O)CN)[C@@H](C)CC)[C@@H](C)CC)C(=O)N[C@H](CC(=O)N[C@@H](CCCCN)C(=O)N[C@H](CC(=O)N[C@@H](Cc1ccccc1)C(N)=O)CC(C)C)CC(C)C | cytotoxicity | – | – | IC50 | 5.4 µg/mL |
| COc1ccc(CC[C@H]2OC(=O)[C@@H]3CCCCN3C(=O)C(=O)C(C)(C)COC(=O)C=CCCN(C)C(=O)[C@H](C)N(C)C(=O)[C@H]3CCCN3C(=O)[C@H](Cc3ccccc3)N(C)C(=O)[C@H](Cc3ccccc3)NC(=O)CCC(=O)Nc3cccc2c3)cc1OC | thymidine uptake, inhibitor | – | – | IC50 | > 20 µM |
| CC[C@H](C)[C@H](NC(=O)[C@H](CCCCN)NC(=O)[C@H]1CCC[C@@H]1NC(=O)[C@H](CC(C)C)NC(=O)CN)C(=O)N[C@H](CC(=O)N[C@@H](CCCCN)C(=O)N[C@@H](CCCCN)C(=O)N[C@H]1CCC[C@@H]1C(=O)N[C@@H](CC(C)C)C(=O)N[C@@H](CCCCN)C(=O)N[C@H](CC(=O)N[C@@H](Cc1ccccc1)C(N)=O)CC(C)C)[C@@H](C)CC | cytotoxicity | – | – | IC50 | 8 µg/mL |
| Oc1ccc(C#Cc2c(O)ccc3c2C(c2ccc(O)cc2)(c2ccc(O)cc2)c2cc(O)ccc2-3)cc1 | cell growth or viability, MTT | 48 h | – | IC50 | > 50 µM |
| COc1ccc(CC[C@H]2OC(=O)[C@@H]3CCCCN3C(=O)C(=O)C(C)(C)COC(=O)C=CCCN(C)C(=O)[C@H](c3ccccc3)NC(=O)[C@@H](Cc3ccccc3)N(C)C(=O)[C@@H]3CCCN3C(=O)[C@H](CC(C)C)N(C)C(=O)CCC(=O)Nc3cccc2c3)cc1OC | thymidine uptake, inhibitor | – | – | IC50 | > 20 µM |
| CC[C@H](C)[C@H](NC(=O)[C@H](CCCCN)NC(=O)[C@H](CCCCN)NC(=O)C[C@@H](NC(=O)[C@@H](NC(=O)[C@H](CCCCN)NC(=O)[C@H](Cc1ccccc1)NC(=O)C[C@H](CC(C)C)NC(=O)CN)[C@@H](C)CC)[C@@H](C)CC)C(=O)N[C@@H](C)CC(=O)N[C@@H](CCCCN)C(=O)N[C@@H](CO)C(=O)N[C@@H](Cc1ccccc1)C(N)=O | cytotoxicity | – | – | IC50 | > 128 µg/mL |
| CNC(NN=Cc1ccc([N+](=O)[O-])o1)=[S+][Au-][Cl] | tube branching nodes, tube formation | IC10, 16 h | reference: untreated | inhibition | 40% |
